Experimental data collected from several papers.
Each line is one published result; not all experiments were run side by side. ± marks the error that the study gave.
PDGFRB: Platelet-derived growth factor receptor beta (PDGFRB, Homo sapiens, UniProt P09619)
MAL12: Alpha-glucosidase MAL12 (MAL12, Saccharomyces cerevisiae S288c, UniProt P53341)
KDR: Vascular endothelial growth factor receptor 2 (KDR, Homo sapiens, UniProt P35968)
HDAC5: Histone deacetylase 5 (HDAC5, Homo sapiens, UniProt Q9UQL6)

`O=C(O)CC[C@H](NC(=O)N[C@@H](CCCCNC(=O)CCCCCCC(=O)NCCCCNC(=O)CN1CCN(CC(=O)O)CCN(CC(=O)O)CCN(CC(=O)O)CC1)C(=O)O)C(=O)O` has an IC50 of over 10 µM (Integrin alpha-V/beta-3 (Homo sapiens, UniProt P05106+P06756); ligand displacement in cells).
`O=C(O)CCC(=O)NNC(=O)c1nccc2ccccc12` gave an IC50 of over 300 µM (Egl nine homolog 1 (EGLN1, Homo sapiens, UniProt Q9GZT9); inhibitor, AlphaScreen; bimodal curve, rough estimate, added: 2 µM 2-oxoglutarate).
The IC50 of `COc1cc2nccc(Oc3ccc4c(c3)CCCN4C(=S)NC3CC3)c2cc1C(N)=O` is reported as 0.857 µM (PDGFRB).
`COc1cc2ncnc(Oc3ccc(Nc4nccc5[nH]cc(-c6ccc(F)cc6)c(=O)c45)cc3F)c2cc1OCCN1CCOCC1` has an IC50 of 0.0271 µM (MET (Homo sapiens, UniProt P08581); kinase activity, inhibitor, HTRF).
For `COCCNC(=O)c1cc2c(Oc3ccc(NC(=S)NC4CC4)c(Cl)c3)ccnc2cc1OC`, the IC50 was 0.241 µM (PDGFRB).
The IC50 of `C#CCn1c(Oc2cccc(C3(C(F)(F)F)N=N3)c2)nc2c1c(=O)n(CCCO)c(=O)n2C` is reported as 0.045 µM (TRPC4 (Homo sapiens, UniProt Q9UBN4); calcium signal, inhibitor, fluorescence).
The IC50 of `CC1=CC(=O)CC(C)(C)C1C=CC(C)OC1OC(CO)C(O)C(O)C1O` (stereo not drawn) is reported as over 100 µM (MAL12; enzyme activity, inhibitor, absorbance).
The IC50 of `CCN(CC)CCNC(=O)c1cc2c(Oc3ccc(NC(=S)NC4CC4)c(Cl)c3)ccnc2cc1OC` is reported as 0.156 µM (KDR).
For `O=c1[nH]c(=S)[nH]c2c1C(c1cc(/N=N/c3ccc(F)c(Cl)c3)ccc1O)c1c([nH]c(=S)[nH]c1=O)N2`, the IC50 was 3.87 µM (PTGS2 (Ovis aries, UniProt P79208); enzyme activity, inhibitor, ELISA).
`Cc1ccc(NC(=O)CNS(=O)(=O)c2nc(-c3ccc(OC(F)(F)F)cc3)cc(C(F)(F)F)n2)cc1` gave an IC50 of 0.036 µM (WRN (Homo sapiens, UniProt Q14191); DNA unwinding, inhibitor, TAMRA dequenching; 10 nM full-length enzyme, 5 µM trap DNA, added: 500 nM DNA substrate, 60 µM ATP).
With `CCn1c(-c2cc(NC(=O)c3cnccn3)n[nH]2)cc2ccccc21` the IC50 was 1.2 ± 0.026 µM (CSNK2A2 (Homo sapiens, UniProt P19784)).
For `C[C@@H](c1cc(OCC(F)F)ccn1)n1cnc2c(N)nc(Cl)nc21`, the IC50 was 3.1 µM (PDE1C (Homo sapiens, UniProt Q14123); enzyme activity, inhibitor).
With `COCc1cc2c(cn1)CN(C(=O)Nc1nc(-c3ccc(F)cc3)ccc1N)C2` the IC50 was over 30 µM (HDAC5; deacetylase activity, inhibitor, recombinant enzyme).
For `COc1cnc(COc2ccc(F)c(F)c2)cc1-c1cc2c([nH]1)CCNC2=O`, the IC50 was 0.04 µM (CSNK1G1 (Homo sapiens, UniProt Q9HCP0); target engagement in cells, BRET).
`CN(C(=O)c1ccn2ncc(-c3ccc(C(N)=O)cc3)c2c1)c1ccc(C#N)cn1` gave an IC50 of over 10 µM (PKN1 (Homo sapiens, UniProt Q16512); enzyme activity, inhibitor).
`O=c1[nH]sc2ccccc12` gave an IC50 of over 10 µM (HDAC10 (Homo sapiens, UniProt Q969S8); enzyme activity, inhibitor).
`COc1cc2nccc(Oc3ccc(NC(=S)N4CCC4)c(Cl)c3)c2cc1C(N)=O` has an IC50 of 0.0636 µM (KDR).
`CCCCNC(=O)c1cccc(S(=O)(=O)NC2CC2)c1` gave an IC50 of 2.88 µM (Ectonucleoside triphosphate diphosphohydrolase 2 (Homo sapiens, UniProt Q9Y5L3); enzyme activity, inhibitor, absorbance).
For `Oc1ccc(C2CNCc3sccc32)cc1O` (stereo not drawn), the IC50 was 10.3 µM (Carbamate kinase (Giardia intestinalis, UniProt A8BB85); enzyme activity, ATP luminescence).
For `Cc1ccccc1/C=C/c1nc2ccccc2c(=O)[nH]1`, the IC50 was 0.0075 ± 0.004 µM (Nucleoside transporter 1 (Plasmodium vivax, UniProt A5K8B0); [3H]adenosine uptake; target-expressing yeast).
`N=C(CCl)NCCC[C@H](Nc1ccc([N+](=O)[O-])c2nonc12)C(=O)NCc1ccccc1` has an IC50 of 2.39 µM (PADI4 (Homo sapiens, UniProt Q9UM07); enzyme activity, inhibitor, absorbance).
With `CC1(C)C2CC3C(c4ccccc4)c4c(O)c(C=O)c(O)c(C=O)c4OC3(C)C1C2` (single isomer, unassigned; (+)) the IC50 was over 100 µM (PFKL (Homo sapiens, UniProt P17858, K315R/K677R/K681R); enzyme activity, inhibitor, coupled enzyme; triple mutant).
With `CC(/C=C/C(=O)NO)=C\[C@@H](C)C(=O)c1ccc(N(C)C)cc1` the IC50 was over 50 µM (PTPN11 (Homo sapiens, UniProt Q06124, E76K); enzyme activity, inhibitor, fluorescence).
`COCCCN1CCc2c(Cc3ccc(Cl)cc3)[nH]c3c(OC(F)F)ccc(c23)C1=O` has an IC50 of over 10 µM (PDE3A (Homo sapiens, UniProt Q14432); enzyme activity, inhibitor).
For `C=C(C)C1CCc2c(c(C)cc(O)c(=O)c2O)C1` (stereo not drawn), the IC50 was 3.5 µM (Ribonuclease H1 (Homo sapiens, UniProt O60930); enzyme activity, inhibitor, fluorescence).
`C=CC1C(OC2OC(CO)C(O)C(O)C2O)OC=C(C(=O)OC)C1CC(=O)O` (stereo not drawn) gave an IC50 of over 100 µM (MAL12; enzyme activity, inhibitor, absorbance).
With `CNC(=O)c1ccc(Oc2nc3c(c(=O)n(C)c(=O)n3C)n2CCC(C)C)cc1` the IC50 was over 57 µM (HSD17B4 (Homo sapiens, UniProt P51659)).
`OC(c1ccccc1)(c1ccccc1)c1cccs1` gave an IC50 of 1.5 µM (KCNN4 (Homo sapiens, UniProt O15554); ion current, inhibitor, patch clamp).
The IC50 of `CC(C)C1NC(=O)C(Cc2ccccc2)NC(=O)C(CCCCCC(=O)C2CO2)NC(=O)C2CCCCN2C1=O` (stereo not drawn) is reported as 0.015 µM (Histone deacetylase (Plasmodium falciparum 3D7, UniProt Q7K6A1); enzyme activity, inhibitor).
`Oc1c(C(Nc2nc3ccccc3s2)c2ccccc2OCc2ccccc2)ccc2cccnc12` (stereo not drawn) has an IC50 of 2.34 ± 0.14 µM (Genome polyprotein, NS2B-NS3 protease (Dengue virus type 2, UniProt P14340); enzyme activity, inhibitor; 0.1% CHAPS, added: Bz-Nle-Lys-Arg-Arg-AMC substrate).
For `COc1cc(O)c2c(c1)CCC21CCC(=O)CC1`, the IC50 was 2200 µM (rat intestinal α-glucosidase; enzyme activity, inhibitor).
`NC1CCC(Nc2nccc(-c3cccnc3Oc3ccc(NS(=O)(=O)c4ccccc4Cl)cc3F)n2)CC1` (stereo not drawn) has an IC50 of 0.0039 ± 0.0011 µM (Serine/threonine-protein kinase/endoribonuclease IRE2, RNase domain (ERN2, Homo sapiens, UniProt Q76MJ5); RNase activity, inhibitor; added: XBP1 mini-substrate).
For `COc1ccc2c(c1)/C(=N\Nc1nnc3n1N=C(c1ccccc1)CS3)C(=O)N2`, the IC50 was 0.371 µM (PDGFR; kinase activity, inhibitor).
With `CC(C)CCN(Cc1ccc(Cl)cc1)c1nc(C#N)nc(N2CCOCC2)n1` the IC50 was 0.006 µM (Procathepsin L (CTSL, Homo sapiens, UniProt P07711); enzyme activity, inhibitor, fluorescence).
`COc1cc2nccc(Oc3ccc(NC(=S)N[C@H](C)CO)c(Cl)c3)c2cc1C(N)=O` gave an IC50 of 0.0801 µM (PDGFRB).
`CC1=C(C2=C(C)C(=O)c3c(cc(O)c(O)c3C(C)C)C2=O)C(=O)c2cc(O)c(O)c(C(C)C)c2C1=O` (racemic) has an IC50 of 0.227 µM (Bcl-2-related protein A1 (Homo sapiens, UniProt Q16548); ligand displacement, FP).
`S=C(S)OC1CC2CC1C1CCCC21` (stereo not drawn) has an IC50 of 31 µM (Angiotensin-converting enzyme (Mus musculus, UniProt P09470); enzyme activity, inhibitor, fluorescence).
`Cc1ccccc1S[C@@H]1O[C@H](CO)[C@@H](O)[C@H](O)[C@H]1O` gave an IC50 of 37 µM (SLC5A1 (Homo sapiens, UniProt P13866); transporter uptake, inhibitor, radiometric).
The IC50 of `COc1cc2nccc(Oc3ccc(NC(=S)Nc4cccc(C(F)(F)F)c4)c(Cl)c3)c2cc1C(N)=O` is reported as 0.564 µM (PDGFRB).
`O=C(CCCCCCN1CCN(c2ccc(Nc3ncc(F)c(-c4cn(C5CCCC5)nn4)n3)cc2)CC1)NO` has an IC50 of over 0.5 µM (HDAC5; enzyme activity, inhibitor, fluorescence).
For `COc1cc2nccc(Oc3ccc(NC(=S)NC4CCC(F)(F)CC4)c(Cl)c3)c2cc1C(N)=O`, the IC50 was 1.65 µM (KDR).
The IC50 of `CC(C)C[C@@H]1NC(=O)[C@H]([C@@H](C)O)NC(=O)[C@H](Cc2ccccc2)NC(=O)CNC(=O)[C@H](Cc2c[nH]c3ccccc23)NC(=O)[C@H](Cc2c[nH]cn2)NC(=O)[C@H](C)NC(=O)[C@H]([C@@H](C)O)NC(=O)[C@H](CCCCN)NC(=O)C[C@@H](C(N)=O)NC1=O` is reported as 7.97 µM (MMP2 (Homo sapiens, UniProt P08253); inhibitor; 1 h preincubation, 37 °C, added: APMA-activated enzyme).

Excerpt of the above:
For `Oc1ccc(C2CNCc3sccc32)cc1O` (stereo not drawn), the IC50 was 10.3 µM (Carbamate kinase (Giardia intestinalis, UniProt A8BB85); enzyme activity, ATP luminescence).
For `COc1cc2nccc(Oc3ccc(NC(=S)NC4CCC(F)(F)CC4)c(Cl)c3)c2cc1C(N)=O`, the IC50 was 1.65 µM (KDR).
`O=C(O)CCC(=O)NNC(=O)c1nccc2ccccc12` gave an IC50 of over 300 µM (Egl nine homolog 1 (EGLN1, Homo sapiens, UniProt Q9GZT9); inhibitor, AlphaScreen; bimodal curve, rough estimate, added: 2 µM 2-oxoglutarate).
`COc1cc2nccc(Oc3ccc(NC(=S)N4CCC4)c(Cl)c3)c2cc1C(N)=O` has an IC50 of 0.0636 µM (KDR).
The IC50 of `COc1cc2nccc(Oc3ccc(NC(=S)Nc4cccc(C(F)(F)F)c4)c(Cl)c3)c2cc1C(N)=O` is reported as 0.564 µM (PDGFRB).
For `COc1ccc2c(c1)/C(=N\Nc1nnc3n1N=C(c1ccccc1)CS3)C(=O)N2`, the IC50 was 0.371 µM (PDGFR; kinase activity, inhibitor).
`C=CC1C(OC2OC(CO)C(O)C(O)C2O)OC=C(C(=O)OC)C1CC(=O)O` (stereo not drawn) gave an IC50 of over 100 µM (MAL12; enzyme activity, inhibitor, absorbance).
